Results pooled from the literature.
Protocols differ between the studies behind these lines. Values joined by “and” are separate records of one study, mostly repeats; a detail may differ. Numbers after ± are the reported error.

Structure (SMILES) | tested on | assay | system | conditions | scale | endpoint | result
CCCC[C@H](NC(=O)CNC(=O)CNC(=O)[C@H](CCCCNC(=O)[C@H](CC(=O)O)NC(=O)C(C)c1ccc(CC(C)C)cc1)NC(=O)CN1CCN(CC(=O)O)CCN(CC(=O)O)CCN(CC(=O)O)CC1)C(=O)N[C@H]1CC(=O)NCCCC[C@@H](C(N)=O)NC(=O)[C@H](Cc2c[nH]c3ccccc23)NC(=O)[C@H](CCCNC(=N)N)NC(=O)[C@@H](Cc2ccccc2)NC(=O)[C@H](Cc2c[nH]cn2)NC1=O (stereo partly drawn) [lutetium-177 labelled] | – | – | C57 mouse, intestines | intravenous, 0.037 MBq, 24 h | – | tissue uptake | 1.89 ± 0.6 %ID
C1CCC(OCCN2CCN(CCOC3CCCCC3)CC2)CC1 | Trypanosoma cruzi | reporter mRNA translation, inhibitor, item: Renilla luciferase mRNA | cell-free extract | concentration not given, test 2 | reference: positive over negative control | translation activity | 120% and 97%
COc1cccc(OC)c1-c1cc(C(=O)NC2(C(=O)O)C3CC4CC(C3)CC2C4)nn1-c1ccc(C(=O)N(C)CCOCCOCCN(C)C(=O)[C@H](CCCCNC(=O)[C@H](CC(C)C)NC(=O)C2OC2C(=O)O)NC(=O)CN2CCN(CC(=O)[O-])CCN(CC(=O)[O-])CCN(CC(=O)[O-])CC2)cc1C(C)C.[177Lu+3] (mixture of isomers) | – | – | mouse HT-29 xenograft, small intestine | 168 h post injection, biodistribution | – | tissue uptake | 0.054 %ID/g
CC(C)c1noc(C2CCN(c3ncnc(Nc4ccc(OCC[18F])cc4)c3[N+](=O)[O-])CC2)n1 | – | ex vivo biodistribution after PET | C57BL/J male mice, intestine | 60 min | – | tissue uptake | 2.11 ± 0.48 %ID/g
COc1cccc(OC)c1-c1cc(C(=O)NC2(C(=O)O)C3CC4CC(C3)CC2C4)nn1-c1ccc(C(=O)NCCNC(=O)[C@H](CCCCNC(=O)[C@H](CC(C)C)NC(=O)C2OC2C(=O)O)NC(=O)CN2CCN(CC(=O)[O-])CCN(CC(=O)[O-])CCN(CC(=O)[O-])CC2)cc1C(C)C.[177Lu+3] (mixture of isomers) | – | – | mouse HT-29 xenograft, large intestine | 72 h post injection, biodistribution | – | tissue uptake | 0.25 %ID/g
N#C[C@@H]1CC(F)(F)CN1C(=O)CNC(=O)c1ccnc2c(NC(=O)[C@H](CCCCNC(=O)CCOCCOCCOCCOCCOCCOCCNC(=O)CN3CCN(CC(=O)[O-])CCN(CC(=O)[O-])CCN(CC(=O)[O-])CC3)NC(=O)CCCc3ccc(I)cc3)cccc12.[177Lu+3] | – | – | mouse, U-87 MG tumour xenograft, kidneys | 72 h | – | tissue uptake | 0.82 ± 0.22 %ID/g
O=C(NCC1OC2CCC=CCCC2O1)c1ccc(COCCOCCOCC[18F])cc1 (stereo not drawn) | – | – | healthy female BALB/c nude mice, bladder | intravenous, 7.4 MBq per mouse, 120 min | – | tissue uptake | 1.9 ± 0.2 %ID/g
COc1cccc(OC)c1-c1cc(C(=O)NC2(C(=O)O)C3CC4CC(C3)CC2C4)nn1-c1ccc(C(=O)N(C)CCCN(C)CCCN(C)C(=O)[C@H](CCCCNC(=O)[C@H](CC(C)C)NC(=O)C2OC2C(=O)O)NC(=O)CN2CCN(CC(=O)[O-])CCN(CC(=O)[O-])CCN(CC(=O)[O-])CC2)cc1C(C)C.[177Lu+3] (mixture of isomers) | – | – | mouse, HT-29 xenograft, brain | 4 h post injection | – | tissue uptake | 0.36 %ID/g
[11CH3]N1CCC(NC(=O)c2cc(-c3c(O)cc(O)cc3Oc3ccc([N+](=O)[O-])cc3)on2)CC1 | – | – | Wistar rat, female, healthy, blood | intravenous, 2 min | – | tissue uptake | 17.6 ± 1.5 %ID
O=C(O)CCCOc1ccc([18F])cc1-c1cc(-c2ccccc2C(F)(F)F)n(-c2ccccc2)n1 | – | – | mouse, urine | intravenous, dose not given, 360 min | – | tissue uptake | 0.58 ± 0.15 %ID/g
COc1cccc(OC)c1-c1cc(C(=O)NC2(C(=O)O)C3CC4CC(C3)CC2C4)nn1-c1ccc(C(=O)N(C)CCCN(C)C(=O)[C@H](CCCCNC(=O)[C@H](CC(C)C)NC(=O)C2OC2C(=O)O)NC(=O)CN2CCN(CC(=O)[O-])CCN(CC(=O)[O-])CCN(CC(=O)[O-])CC2)cc1C(C)C.[177Lu+3] (mixture of isomers) | – | – | mouse, HT-29 xenograft, brain | 72 h post injection | – | tissue uptake | 0.014 %ID/g
N#C[C@@H]1CC(F)(F)CN1C(=O)CNC(=O)c1ccnc2c(NC(=O)CCOCCOCCOCCOCCOCCOCCNC(=O)[C@H](CCCCNC(=O)CN3CCN(CC(=O)[O-])CCN(CC(=O)[O-])CCN(CC(=O)[O-])CC3)NC(=O)CCCc3ccc(I)cc3)cccc12.[177Lu+3] | – | – | mouse, U-87 MG tumour xenograft, brain | 1 h | – | tissue uptake | 0.15 ± 0.03 %ID/g
CC(CC1CC2=C(CC1(C)C)C(C)(C)CCC2)=NNC(N)=S (stereo not drawn) | Trypanosoma cruzi | reporter mRNA translation, inhibitor, item: capped polyadenylated Renilla luciferase mRNA | cell-free extract | concentration not given | reference: control RNA | relative translation | 107%
[123I]c1ccc2nc(-c3ccc(-n4ccnn4)nc3)cn2c1 | – | – | Wistar rat, male, adrenals | intravenous, 4 MBq, 1 h | – | tissue uptake | 7.75 ± 0.994 %ID/g
CC(C)Cc1ccc(C(C)C(=O)N[C@@H](CCCCNC(=O)CCOCCOCCOCCOCCOCCOCCNC(=O)CN2CCN(CC(=O)[O-])CCN(CC(=O)[O-])CCN(CC(=O)[O-])CC2)C(=O)Nc2cccc3c(C(=O)NCC(=O)N4CC(F)(F)C[C@H]4C#N)ccnc23)cc1.[177Lu+3] (stereo partly drawn) | – | – | mouse, U-87 MG tumour xenograft, brain | 24 h | – | tissue uptake | 0.04 ± 0.01 %ID/g

Repeated from above:
Structure (SMILES) | tested on | assay | system | conditions | scale | endpoint | result
[123I]c1ccc2nc(-c3ccc(-n4ccnn4)nc3)cn2c1 | – | – | Wistar rat, male, adrenals | intravenous, 4 MBq, 1 h | – | tissue uptake | 7.75 ± 0.994 %ID/g
CC(CC1CC2=C(CC1(C)C)C(C)(C)CCC2)=NNC(N)=S (stereo not drawn) | Trypanosoma cruzi | reporter mRNA translation, inhibitor, item: capped polyadenylated Renilla luciferase mRNA | cell-free extract | concentration not given | reference: control RNA | relative translation | 107%
CC(C)c1noc(C2CCN(c3ncnc(Nc4ccc(OCC[18F])cc4)c3[N+](=O)[O-])CC2)n1 | – | ex vivo biodistribution after PET | C57BL/J male mice, intestine | 60 min | – | tissue uptake | 2.11 ± 0.48 %ID/g
